Assay results collected from several papers.
Lines come from different studies, so protocols differ. Values joined by “and” are separate records of one study, mostly repeats; a detail may differ.
Target: 3-phosphoinositide-dependent protein kinase 1 (PDPK1, Homo sapiens, UniProt O15530)

NC(=O)[C@@H](O)C[C@H]1CCc2sc3ncnc(O[C@H]4CC[C@H](N5CCOCC5)CC4)c3c21
inhibition (enzyme activity, inhibitor; 10 µM): 0%

Cc1cccc(O[C@H]2CCC[C@@H](C(C)CNCc3ccncc3)C2)c1 (relative stereo)
inhibition (enzyme activity, inhibitor; 1 µM): -4%

COCC12C(=O)NC3C4(C(OC)CC1O)C1CC5(O)C(OC)C(O)C(OC(C)=O)(C1C5OC(=O)c1ccccc1)C3(O)C(OC)C24 (centres unmarked)
remaining activity (kinase activity, inhibitor, ProQinase kinase profiling; 25 µM; reference: control): 94% and 105%

CN1CC[C@@H](COc2cnc(C#N)cc2-c2ccn3nc(NC(=O)C4CC4)cc3c2)C1
inhibition (enzyme activity, inhibitor; 1 µM): 13%

CCn1cc(C(=O)O)c(=O)c2c(N)c(F)c(NC3CCCCC3)cc21
inhibition (kinase activity; 0.1 µM, with: ATP at Km): -16.3%

Nc1ncc(-c2cc(-c3cnn(CC(F)(F)F)c3)ncc2F)nc1C(=O)NC1CNCC(F)C1 (centres unmarked)
remaining activity (enzyme activity; 1 µM; reference: DMSO control): 98.2%

COc1ccc(C(=O)/C=C/c2ccccc2-c2c[nH]c3ccc(C#N)cc23)c(O)c1
inhibition (enzyme activity, inhibitor; 20 µM): 2%

N[C@H]1CC[C@H](Nc2nccc(-c3cccnc3Oc3ccc(NC(=O)NC4CC4)c4ccccc34)n2)CC1
log2 LFQ intensity (kinobead competition pulldown; HEK293/HCT116 lysate mixture; 10 µM, 1 h, 4 °C; lower = stronger competition): 23.4 and 23.3

CNC1C[S+]2CC[S+]3CC[S+](C1)[Ru-4]321([N]=C=S)[n]2c3ccc(OC)cc3c3c4c(c5cc(F)c[n+]1c5c32)C(=O)NC4=O (centres unmarked)
remaining binding (KinomeScan; 0.1 µM; reference: untreated): 58%

Cc1cccc(-c2ccc3nc(NC(=O)C4CCCCC4)nn3c2)c1
remaining activity (enzyme activity, Dundee kinase panel; 10 µM): 101%

O=c1c(-c2ccc(Cl)c(CN3CCOCC3)c2)coc2cc(O)ccc12
remaining activity (enzyme activity, inhibitor; 1 µM): 89%

COc1cc(Nc2nc(C)cc(-c3cnn4nc(OC)ccc34)n2)cc(C(F)(F)F)c1
remaining activity (inhibitor; 1 µM; reference: control): 100%

COc1c(Cl)cccc1Nc1c(-c2ccncc2C#C[C@@]2(C)CCCN2C(=O)/C=C/CN(C)C)[nH]c2c1C(=O)NCC2
remaining binding (binding, competition with immobilised ligand; 3 µM): 94%

O=C(Nc1ccc(Oc2ncnc3[nH]cc(-c4ccccc4)c23)c(F)c1)c1c2n(n(-c3cc(F)ccc3F)c1=O)CCCC2
inhibition (enzyme activity, inhibitor; 0.5 µM): 14%

CN1CCN(Cc2ccc(NC(=O)c3cccc(C#Cc4cnc(N)c5ncccc45)c3)cc2C(F)(F)F)CC1
remaining binding (cell-free assay, competition with immobilised ligand; 0.5 µM): 60%

COc1ccc(NC(=O)Nc2ccc3c(c2)C(=O)N(C(C)CO)CC(C)C(CN(C)Cc2ccc4c(c2)OCO4)O3)cc1 (centres unmarked)
remaining activity (kinase activity, KinaseProfiler; 0.03 µM, species human; reference: control): 98%

C=CC(=O)Nc1cccc(-c2cnc3[nH]cc(C(=O)NC(C)(C)C)c3n2)c1
inhibition (enzyme activity, inhibitor; 0.1 µM): 12%

Cc1ccc(C)c(-c2ccc3nc(NC(=O)C4CCCCC4)nn3c2)c1
remaining activity (enzyme activity, Dundee kinase panel; 10 µM): 96%

C[C@H]1CN(C(=O)c2cn(-c3ccnc(N)n3)c3cc(C#CC4(O)CCCCC4)ccc23)CCN1
inhibition (enzyme activity, inhibitor, FRET; 1 µM): -9%

Cc1ccc(-c2c(/C=C(\C#N)C(=O)NC(C)C)n(CCCO)c3ncnc(N)c23)cc1
remaining binding (cell-free assay, competition with immobilised ligand; 1 µM): 100%

CNS(=O)(=O)Nc1nccc(Cc2c(C)c3ccc(Oc4ncccc4F)cc3oc2=O)c1F
remaining binding (binding, competition with immobilised ligand; 10 µM): 87%

CCN1CCN(Cc2ccc(C(=O)Nc3ccc(C)c(NCc4cnc5[nH]ccc5c4OC)c3)cc2C(F)(F)F)CC1
remaining binding (binding, competition with immobilised ligand; 1 µM): 99%

Cc1cnc2nc1Nc1cccc(c1)COC/C=C/COCc1cc(ccc1OCCN1CCOCC1)N2
remaining binding (binding; 0.1 µM): 100%
